Measured values collected from several papers.
Parts stem from different laboratories: compare values within a part only.

Set 1
Target: Probable WRKY transcription factor 33, N-terminal DNA-binding domain (WRKY33, Arabidopsis thaliana, UniProt Q8S8P5, residues 169-264)
Chain of UniProt Q8S8P5 (169-264, looked up): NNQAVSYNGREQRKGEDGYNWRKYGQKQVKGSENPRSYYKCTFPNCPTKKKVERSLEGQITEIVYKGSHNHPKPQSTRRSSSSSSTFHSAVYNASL
Technique: DNA-protein interaction ELISA
Form: double-stranded DNA, one strand shown
Medium: in vitro, bacterial lysate
Tested at: not given
Notes: whole dsDNA probe, crude lysate protein
Baseline: highest signal in screen
Direction: higher = stronger binding
Sequence	relative absorbance
AAAAAATAGACCCTGACCCACCATTGAAAA	27.4 % of maximum
AAAAAATTTGCGCTTCATCCTGCCCCAAAA	24.5 % of maximum
AAAAAATGGTTTCAATTTTCCGTCCGAAAA	26.5 % of maximum
AAAAAACTCGCGCTTGCATCTGTGCGAAAA	21.9 % of maximum
AAAAAACTTGCTCCTCCGTTTTACTCAAAA	21.9 % of maximum

Set 2
Target: Sal-like protein 4, full length isoform B (SALL4, Homo sapiens, UniProt Q9UJQ4-2, residues 1-616)
Technique: universal PBM
Form: double-stranded DNA, one strand shown
Medium: in vitro
Tested at: not given
Notes: 8-mer, flanks averaged, mean of replicates
Direction: higher = stronger binding
Construct (chain): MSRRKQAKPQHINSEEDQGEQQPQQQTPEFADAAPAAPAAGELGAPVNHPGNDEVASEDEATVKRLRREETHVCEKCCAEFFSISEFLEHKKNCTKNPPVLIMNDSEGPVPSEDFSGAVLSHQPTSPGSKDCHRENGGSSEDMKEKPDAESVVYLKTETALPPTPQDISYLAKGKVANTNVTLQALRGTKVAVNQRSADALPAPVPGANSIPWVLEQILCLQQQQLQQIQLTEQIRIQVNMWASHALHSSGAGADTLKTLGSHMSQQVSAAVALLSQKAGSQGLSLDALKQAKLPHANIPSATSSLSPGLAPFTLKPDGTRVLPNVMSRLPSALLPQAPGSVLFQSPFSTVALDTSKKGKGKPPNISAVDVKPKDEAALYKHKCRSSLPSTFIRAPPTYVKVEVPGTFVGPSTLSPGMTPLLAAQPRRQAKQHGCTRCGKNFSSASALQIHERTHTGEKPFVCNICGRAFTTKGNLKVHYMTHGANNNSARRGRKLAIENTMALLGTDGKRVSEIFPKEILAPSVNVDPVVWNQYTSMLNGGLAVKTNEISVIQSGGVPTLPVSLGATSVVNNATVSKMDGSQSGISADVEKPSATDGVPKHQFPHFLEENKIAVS
Sequence	E-score
CCGAGCCG	-0.344
CCCGTCCC	-0.347
AATTTGAT	0.215
AGTGGACG	-0.0429

Set 3
Target: Histone acetyltransferase KAT6A, winged helix 1, GST fusion (KAT6A, Homo sapiens, UniProt Q92794, residues 1-85)
Technique: protein binding microarray
Form: double-stranded DNA, one strand shown
Medium: in vitro
Tested at: not given
Notes: 8-mer, flanks averaged, mean of 2 arrays, mostly near background
Baseline: not given
Direction: higher = stronger binding
Construct (chain): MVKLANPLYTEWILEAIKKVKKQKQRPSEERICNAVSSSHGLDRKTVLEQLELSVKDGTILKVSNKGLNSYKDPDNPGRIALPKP
Sequence	E-score
AATACAAG	-0.181
ACCTCTCA	-0.0848
AGGCGTAC	0.092
CCGATATA	-0.0542

Further values, each from its own experiment
Molecule	target	test	system	conditions	scale	quantity	value
PhoQ, residues 284 288 289 292 302 303 AEGLLW	PhoP, residues 12 14 15 18 19 LHHSG (Escherichia coli, UniProt P23836)	Sort-seq, measured: YFP reporter	E. coli	PhoQ-PhoP variant library, added: 10 µM Mg2+	baseline: high Mg2+ state, higher = stronger signaling	fold induction	15.8

A few entries again (further values, each from its own experiment):
Molecule	target	test	system	conditions	scale	quantity	value
PhoQ, residues 284 288 289 292 302 303 AEGLLW	PhoP, residues 12 14 15 18 19 LHHSG (Escherichia coli, UniProt P23836)	Sort-seq, measured: YFP reporter	E. coli	PhoQ-PhoP variant library, added: 10 µM Mg2+	baseline: high Mg2+ state, higher = stronger signaling	fold induction	15.8
